Published values of several laboratories.
Protocols differ between the studies behind these lines. Values joined by “and” are separate records of one study, mostly repeats; a detail may differ. ± gives the spread as reported.

SMILES = CC(C)NCC(O)c1ccc(O)c(O)c1 (centres unmarked); cell line = mouse ventricular cardiomyocytes; conditions = dose not given, 0.391 s; measurement = sarcomere length; value = 1.8 µm
SMILES = N=C(CCl)NCCC[C@H](NC(=O)c1ccccc1)C(N)=O; cell line = MRL/lpr mouse neutrophils; conditions = concentration not given, 1 h, added: PMA; measurement = H2O2 production; value = no inhibition
SMILES = COc1cc(/C=C/C(=O)N2CCC=CC2=O)cc(OC)c1OC; cell line = MDA-MB-468; assay = quantitative RT-PCR, item: PARK7; conditions = 30 µM, 8 h; how to read = relative to: untreated cells; measurement = mRNA level; value = 84.8 ± 1.5%
SMILES = Nc1cccc2c1CN(C1CCC(=O)NC1=O)C2=O (centres unmarked); cell line = bone marrow CD138+ myeloma cells; assay = XTT; conditions = 1.2 µM, mean of three patients; measurement = viability; value = 70%
SMILES = COc1cc(O)c2c(=O)c(O)c(-c3ccc(O)c(O)c3)oc2c1; cell line = coculture, Caco-2, THP-1; assay = ELISA; conditions = 250 ng/mL, 8 h, added: LPS, IFNγ, ATP; how to read = relative to: untreated control; measurement = IL-1β level; value = 5 ± 1 fold change
SMILES = Cc1cccc(/C=N/Nc2cc(N3CCOCC3)nc(OCCc3ccccn3)n2)c1; cell line = HEK293T ATF4-FLuc reporter; assay = ATF4 reporter gene, activator, luciferase reporter; measurement = EC50; value = 2.73 µM
SMILES = Cc1cnc2ccc3c(c2n1)N1CCC(O)N=C1N3C (centres unmarked); cell line = BALB/c 3T3; assay = colony forming efficiency; conditions = 0.1 µM; measurement = colony number; value = 100 colonies per plate and 105 colonies per plate and 104 colonies per plate
SMILES = CCCCN1C[C@H](O)[C@@H](O)[C@@H](O)[C@H]1CO; cell line = sample A patient fibroblasts; assay = Gb3 level lowering, LC-MS/MS, item: Gb3 d18:1/24:0; conditions = 216 h; measurement = IC50; value = 18.4 µM
SMILES = Cn1c(Nc2nc3ccc(C(F)(F)F)cc3s2)nc2cc(C(=O)NCCOCCO)ccc21; cell line = SH-SY5Y; assay = RNA-seq, item: HSPB8 mRNA; conditions = 5 µM, 5 h; how to read = relative to: untreated cells; measurement = fold change; value = 3.2
SMILES = O=C(O)CCC(=O)Nc1ccc(S(=O)(=O)Nc2nccs2)cc1; cell line = THP-1; assay = pyroptotic LDH release; conditions = 2 µM, 40 min, added: LPS then nigericin; measurement = inhibition; value = -6.94%
SMILES = CCN(CC)c1nccc(NCc2ccc(CNc3nc(Cl)ncc3F)cc2)n1; cell line = HEK293T ATF4-FLuc reporter; assay = ATF4 reporter gene, activator, luciferase reporter; measurement = EC50; value = 6.95 µM
SMILES = O=C(O)c1cc(O)c(O)c(O)c1; cell line = coculture, Caco-2, THP-1; assay = ELISA; conditions = 500 ng/mL, 8 h, added: LPS, IFNγ, ATP; how to read = relative to: untreated control; measurement = IL-1β level; value = 6.4 ± 0.9 fold change
SMILES = CC/C(=N\NC(=O)C(C)Nc1ccccc1)c1ccc(O)c(C)c1O (centres unmarked); cell line = SK-OV-3; assay = Western blot; conditions = 10 µM, 3 h, 2D culture, unit not given; how to read = relative to: DMSO; measurement = LATS band intensity; value = 1.68 ± 1.96
SMILES = CCOc1ccc(Cc2nccc3cc(OCC)c(OCC)cc23)cc1OCC; cell line = HEK293T ATF4-FLuc reporter; assay = ATF4 reporter gene, activator, luciferase reporter; measurement = EC50; value = 4.75 µM
SMILES = O=C(Nc1nnc2[nH]c(=S)[nH]c(-c3ccc(Cl)cc3)c1-2)c1ccccc1; cell line = SF-268; assay = SRB; conditions = 10 µM, NCI60 single-dose screen; how to read = relative to: untreated; measurement = cell growth; value = 92.8%
SMILES = Cc1cc(Nc2ncc(Cl)c(Nc3ccccc3S(=O)(=O)C(C)C)n2)c(OC(C)C)cc1C1CCNCC1; cell line = CLB-BAR; assay = phosphoproteomics LC-MS/MS, item: ARHGAP39 phosphorylation; conditions = 200 nM, 60 min; how to read = relative to: untreated; measurement = log2 fold change; value = -2.98
SMILES = CCCC(=O)O[C@]1(C(=O)CCl)[C@@H](C)C[C@H]2[C@@H]3CCC4=CC(=O)C=C[C@]4(C)[C@@]3(F)C(=O)C[C@@]21C; cell line = HEK293T ATF4-FLuc reporter; assay = ATF4 reporter gene, activator, luciferase reporter; measurement = EC50; value = > 9.96 µM
SMILES = O=C(O)P(=O)(O)O; cell line = THP-1; assay = pyroptotic LDH release; conditions = 2 µM, 40 min, added: LPS then nigericin; measurement = inhibition; value = -15.3%
SMILES = CCn1cc(-c2cc(Cn3ccnc3)cc3c2CCN([C@H](c2cc(OC)ccn2)C2CC2)C3=O)c(C(F)(F)F)n1; cell line = OCUM1; assay = cell growth, inhibitor; conditions = 120 h; measurement = EC50; value = 1.61 µM
SMILES = Cc1ccc(CNC(=O)Cn2cc(CSc3nc4ccccc4[nH]3)nn2)cc1; cell line = Caco-2; assay = MTT; conditions = 62.5 ppm; measurement = cytotoxicity; value = 81%
SMILES = Nc1nccs1; cell line = human iPSC cardiomyocytes; assay = plate-normalised; conditions = concentration not given, hit retest; how to read = relative to: vehicle controls, SDs below control; measurement = MyBP-C level change; value = 3.87 SD
SMILES = CC(C)(C)Cn1c(N)nc2ccc(-c3[nH]c(C(C)(C)C)nc3-c3ccc(F)cc3)nc21; cell line = HEK293T ATF4-FLuc reporter; assay = ATF4 reporter gene, activator, luciferase reporter; measurement = EC50; value = 5.24 µM
SMILES = COc1ccc(NC(=S)N/N=C/c2cccc3cc4ccccc4nc23)cc1; cell line = HeLa; assay = TMRE flow cytometry; conditions = IC25, 48 h, unit not given, added: N-acetylcysteine; how to read = relative to: DMSO control; measurement = mitochondrial membrane potential; value = 1.1 ± 0.26
SMILES = NS(=O)(=O)c1ccc(Oc2ccc(NC(=O)N[C@@H]3[C@@H]4COc5c(F)ccc(F)c5[C@@H]43)nc2)cc1; cell line = HEK293T ATF4-FLuc reporter; assay = ATF4 reporter gene, activator, luciferase reporter; measurement = EC50; value = > 9.96 µM
SMILES = C=CCCCCCCCCCO; cell line = THP-1; assay = pyroptotic LDH release; conditions = 2 µM, 40 min, added: LPS then nigericin; measurement = inhibition; value = 2.21%
SMILES = Cn1cc(-c2ccc(-c3cncc(Cl)c3N3CCC4(CCNC4=O)CC3)cc2)cn1; cell line = COLO 205; assay = microarray, item: NRF2; conditions = concentration not given, 2 h; how to read = relative to: untreated cells; measurement = fold change in expression; value = 2.1
SMILES = C[C@H](CS)C(=O)N1CCC[C@H]1C(=O)O; cell line = HUVEC; assay = western blot; conditions = 10, 100, 1 µM, added: angiotensin II; how to read = relative to: angiotensin II alone; measurement = p-p65/p65 ratio; value = 34.2 % decrease
SMILES = C=Cc1c2[n-]c(c1C)/C=c1\[n-]/c(c(C)c1C=C)=C\c1[n-]c(c(CCC(=O)O)c1C)/C=c1\[n-]c(c(C)c1CCC(=O)O)=C2.[Sn+4]; cell line = SH-SY5Y; assay = RNA-seq, item: FBLIM1 mRNA; conditions = 5 µM, 5 h; how to read = relative to: untreated cells; measurement = fold change; value = 1.97
SMILES = CCn1cc(-c2cc(Cn3ccoc3=N)cc3c2CCN([C@@H](C)c2cc(OC)ccn2)C3=O)c(C(F)(F)F)n1; cell line = MDST8; assay = cell growth, inhibitor; conditions = 120 h; measurement = EC50; value = 1.43 µM
SMILES = CCN(CC)C(=O)c1cccnc1; cell line = THP-1; assay = pyroptotic LDH release; conditions = 2 µM, 40 min, added: LPS then nigericin; measurement = inhibition; value = 45.4%
SMILES = C[C@H]1[C@H](C)CC[C@]2(C)CC[C@]3(C)C(=CC(=O)[C@@H]4[C@@]5(C)CC[C@@H](O)[C@](C)(C(=O)NCc6cn(-c7cccc(Br)c7)nn6)[C@@H]5CC[C@]43C)[C@H]12; cell line = human PBMCs, ConA-activated; assay = flow cytometry; conditions = 10 µM, 24 h; how to read = relative to: T cells; measurement = CD8+ T cells; value = 36%
SMILES = O=C(C[C@@H](C(F)F)n1ccc(F)n1)N1CCC(O)(Cn2cnc3c(cnn3-c3ccc(F)cc3)c2=O)CC1; cell line = CHP-212 parental; assay = annexin V/PI flow cytometry; conditions = 0.3 µM, 48 h; measurement = viable cells; value = 52% and 53.1% and 58.3%
SMILES = O=C(/C=C/C=C/C=C/C1CCCCC1)NC1=C[C@@](O)(/C=C/C=C/C=C/C(=O)NC2=C(O)CCC2=O)[C@@H]2O[C@@H]2C1=O; cell line = SNU-423; assay = cell growth, CellTiter-Glo; conditions = 78 h; measurement = GI50; value = 16.2 µM
SMILES = CCCN1CCN(c2ccc3[nH]c(-c4ccc5[nH]c(-c6cc(OC)c(OC)c(OC)c6)nc5c4)nc3c2)CC1; cell line = SF-268; assay = SRB; conditions = 10 µM, 48 h; measurement = growth percent; value = 75.6%
SMILES = Nc1cccc2c1C(=O)N(C1CCC(=O)NC1=O)C2=O (centres unmarked); cell line = bone marrow CD138+ myeloma cells; assay = XTT; conditions = 0.8 µM, phenol red-free RPMI; measurement = viability; value = 104%
SMILES = CCOC(=O)c1nn(-c2ccccc2)c(C#N)c1NC(=O)c1nn(CC)cc1Cl; cell line = human monocytes; assay = phagocytosis of anti-D RBCs; conditions = 5 µM, lab-synthesized sample; measurement = inhibition; value = < 0.5%
SMILES = CCN1CCN(Cc2ccc(NC(=O)c3ccc(C)c(-c4ccc5nc(NC(=O)C6CC6)cn5n4)c3)cc2C(F)(F)F)CC1; cell line = MUTZ5 cells; assay = Western blot, item: JAK2, STAT5, STAT3; conditions = concentration not given; measurement = phosphorylation; value = inhibited
SMILES = NS(=O)(=O)OC[C@H]1C[C@@H](Nc2ccnc3cc(-c4cccc(SC(F)(F)F)c4)nn23)[C@H](O)[C@@H]1O; cell line = HEK293T ATF4-FLuc reporter; assay = ATF4 reporter gene, activator, luciferase reporter; measurement = EC50; value = 0.103 µM
SMILES = CCCC(=O)[O-].[Na+]; cell line = coculture, Caco-2, THP-1; assay = ELISA; conditions = 500 ng/mL, 8 h, added: LPS, IFNγ, ATP; how to read = relative to: untreated control; measurement = IL-1β level; value = 2.9 ± 2.4 fold change
SMILES = COc1cnc2cccc(N3CCc4c(cc(Cn5ccnc5C)cc4-c4cn(C)nc4C(F)(F)F)C3=O)c2c1; cell line = SW48; assay = cell growth, inhibitor; conditions = 120 h; measurement = EC50; value = 18.5 µM
SMILES = CCCCN1CCN(c2ccc3nc(-c4ccc5nc(-c6cc(OC)ccc6OC)[nH]c5c4)[nH]c3c2)CC1; cell line = OVCAR-8; assay = SRB; conditions = 10 µM, 48 h; measurement = growth percent; value = 97.5%

Some of these lines once more:
SMILES = CC(C)NCC(O)c1ccc(O)c(O)c1 (centres unmarked); cell line = mouse ventricular cardiomyocytes; conditions = dose not given, 0.391 s; measurement = sarcomere length; value = 1.8 µm
SMILES = O=C(O)CCC(=O)Nc1ccc(S(=O)(=O)Nc2nccs2)cc1; cell line = THP-1; assay = pyroptotic LDH release; conditions = 2 µM, 40 min, added: LPS then nigericin; measurement = inhibition; value = -6.94%
SMILES = CCCCN1CCN(c2ccc3nc(-c4ccc5nc(-c6cc(OC)ccc6OC)[nH]c5c4)[nH]c3c2)CC1; cell line = OVCAR-8; assay = SRB; conditions = 10 µM, 48 h; measurement = growth percent; value = 97.5%
SMILES = O=C(O)c1cc(O)c(O)c(O)c1; cell line = coculture, Caco-2, THP-1; assay = ELISA; conditions = 500 ng/mL, 8 h, added: LPS, IFNγ, ATP; how to read = relative to: untreated control; measurement = IL-1β level; value = 6.4 ± 0.9 fold change
SMILES = Cn1c(Nc2nc3ccc(C(F)(F)F)cc3s2)nc2cc(C(=O)NCCOCCO)ccc21; cell line = SH-SY5Y; assay = RNA-seq, item: HSPB8 mRNA; conditions = 5 µM, 5 h; how to read = relative to: untreated cells; measurement = fold change; value = 3.2
